Results collected from several papers.
Parts stem from different laboratories: compare values within a part only. Positions count from the first letter of the parent shown.

Series 1
Target: CCNE2, cyclin fold, Cln2 fusion (human)
Technique: yeast growth competition, sequencing
Sample: yeast
Notes: weak parent motif
Relative to: not given
Reading: higher = stronger binding
Starting sequence: ORC1 docking peptide (human); PRARKRLELGNLG
Variant | normalised enrichment score
GRARKRLELGNLG [P1G] | 0.372
PRAWKRLELGNLG [R4W] | 0.498
PRARKRLMLGNLG [E8M] | 0.527
PRARKRLRLGNLG [E8R] | 0.701
PRARKRWELGNLG [L7W] | 1.12
PRARKRLELGNTG [L12T] | 0.62
PRARKRLEFGNLG [L9F] | 2.36
PRARKRLELCNLG [G10C] | 0.379
PRARKRLELGMLG [N11M] | 1.07
PRARKRLELRNLG [G10R] | -0.0286
PRAQKRLELGNLG [R4Q] | 0.583
PRARKRLELGNQG [L12Q] | 0.509

Series 2
Target: Fragile X messenger ribonucleoprotein 1, C-terminal low-complexity region (Fmr1, Mus musculus, UniProt P35922)
Technique: RNA Bind-n-Seq
Form: RNA
Sample: in vitro
Tested at: 200 nM
Notes: whole 134-nt RNA, ends assumed
With: 150 mM KCl
Relative to: input library
Reading: higher = stronger binding
Shared flanks, not repeated: GGGAGUUCUACAGUCCGACGAUC … UGGAAUUCUCGGGUGUCAAGG
Strand | log2 enrichment
AGUCCUGUGCUACACAUCGUAUGUACCGAAUCGGGAGGGUUUUUUUGGGUUUUUGGGAAAGUAUUAUGUUACGCCGUUCGGAUCUGCACU | 0.217
GUCCUGUGCUACACAUCGUAUGUACCGAAUCGGUUUUUGGUUUUUUUGGAAAAAAAGGAAAGUAUUAUGUUACGCCGUUCGGAUCUGCAC | -0.853
CCUGUGCUACACAUCGUAUGUACCGAAUCGGGGAAAAAGGGGAAAGGGGAAAAAAAGGGGAAAGUAUUAUGUUACGCCGUUCGGAUCUGC | 0.0297
UCCUCAAGUCCUGUGCUACACAUCGUAUGUACCGAAUCGGCGGGCGGGCGGAAAGUAUUAUGUUACGCCGUUCGGAUCUGCACUUCCAGC | -0.0989
UGGGAGGUGGAUUUUGUUUAUUUUUUUAGCUCAUUUCCAGGGGUGGGAAUUUUUUUUUAAUAUUUGUCAUGAAUAAAGUUGUUUUUGAAA | 0.0958
UGAGAAACUUGCUCAAAUAUUGGCAGCUAGACAGUUAGAAAUUAAACAGAUUCCAUCUGAUGGCCACUGUAUGUAUAAAGCCAUUGAAGA | -0.888
CACAGACAACAUGCACCCACACAGACACAGAGGGAAGGGGUUGGGAUGGGGACAGGGUGCACAGCAGGGCGGGGUAGGACCCCAGCCCCU | 1.3
GCAGGAAGUAAAAACAAAUGGAAAUGCUUCGGAUAGUGGCAGGGGUGGGGGUUGCUAAGGAAAGGGUGGGAUGGGAGUGGGUAAAGAGGU | 0.0872
UGGUAUUCAUGGGUAGUUUGAAAUAUCCAGAUGAGAAUGGAUUUGAUGCCUUCCUGAAGAAGCAUGGGGGUAGUGAUAAUGCCUCAACUG | -1.09

Series 3
Target: Prothrombin, mature alpha-thrombin (F2, Homo sapiens, UniProt P00734)
Technique: aptamer microarray, sandwich
Form: DNA with 2'F-ANA
Sample: in vitro
Tested at: 200 nM
Notes: whole 15-mer aptamer, many near background
With: Cy3 exosite-II aptamer, 400 nM
Reading: higher = stronger binding
Strand: GGTTGGTGTGGTTGG
Modification | mean fluorescence intensity [a.u.]
2'F-ANA at 9 11 12 | 669
2'F-ANA at 2 4 7 8 10 12 13 15 | 109
2'F-ANA at 4 6 10 11 12 | 176
2'F-ANA at 1 3 6 8 14 15 | 148
2'F-ANA at 1 2 5 6 8 10 11 12 14 15 | 169
2'F-ANA at 1 7 10 11 | 50.9
2'F-ANA at 5 6 12 | 187
2'F-ANA at 3 6 7 11 12 13 | 1090
2'F-ANA at 3 4 7 11 13 15 | 497
2'F-ANA at 2 3 4 5 6 7 9 10 11 12 14 15 | 55
2'F-ANA at 3 4 7 10 13 14 | 246
2'F-ANA at 3 5 6 8 13 14 15 | 55.9

Further values, each from its own experiment
Substance | target | assay | system | setting | how to read | measurement | result
PhoQ, residues 284 288 289 292 302 303 ASSHFY | PhoP, residues 12 14 15 18 19 LHHSG (Escherichia coli, UniProt P23836) | Sort-seq, refers to: YFP reporter | E. coli | PhoQ-PhoP variant library, with: 10 µM Mg2+ | relative to: high Mg2+ state, higher = stronger signaling | fold induction | 13.2

Excerpt of the above (series 1):
Variant | normalised enrichment score
PRARKRLEFGNLG [L9F] | 2.36
PRARKRLELCNLG [G10C] | 0.379
PRARKRLELGMLG [N11M] | 1.07
PRARKRLELRNLG [G10R] | -0.0286
